Measurements of several laboratories.
Numbered parts are unrelated; each lists some results of a single study. Changes are numbered by the printed parent chain.

Series 1
Target: POU, POU domain (Salpingoeca helianthica)
Method: Spec-seq
Molecule type: double-stranded DNA, one strand shown
Sample: in vitro
Concentration: not given
Setting: whole probe, mean of replicates
Reference: not given
Reading: lower = stronger binding
All sequences stand within: GAGTCGTCTCGTCAGCAC … CCGTAGAGCACTCAGGTC
Target sequence (chain): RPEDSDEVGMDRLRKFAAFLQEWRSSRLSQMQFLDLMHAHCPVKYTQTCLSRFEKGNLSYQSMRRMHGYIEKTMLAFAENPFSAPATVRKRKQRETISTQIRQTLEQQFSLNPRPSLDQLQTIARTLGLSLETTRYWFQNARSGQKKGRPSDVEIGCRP
Oligonucleotide | relative binding energy [ln ratio]
ATGCACGC | 1.28
ATGCCGTT | 1.28
ATGCACGG | 1.23
ATGCTCCA | 1.34
TTCATAAT | 0.401
AAGTTAAT | -0.14
ATGCCCCC | 1.32
ATCAGGAT | 1.17

Series 2
Target: Phosphate system positive regulatory protein PHO4, full length, GST-tagged (PHO4, Saccharomyces cerevisiae, UniProt P07270, residues 1-312)
Method: competition protein-binding microarray
Molecule type: double-stranded DNA, one strand shown
Sample: in vitro
Concentration: 2 µM
Setting: whole 60-bp probe, lowest competitor level
Together with: Cbf1 competitor, 0.05 µM
Reading: higher = stronger binding
All sequences stand within: … GTCTTGATTCGCTTGACGCTGCTG
Residues (chain): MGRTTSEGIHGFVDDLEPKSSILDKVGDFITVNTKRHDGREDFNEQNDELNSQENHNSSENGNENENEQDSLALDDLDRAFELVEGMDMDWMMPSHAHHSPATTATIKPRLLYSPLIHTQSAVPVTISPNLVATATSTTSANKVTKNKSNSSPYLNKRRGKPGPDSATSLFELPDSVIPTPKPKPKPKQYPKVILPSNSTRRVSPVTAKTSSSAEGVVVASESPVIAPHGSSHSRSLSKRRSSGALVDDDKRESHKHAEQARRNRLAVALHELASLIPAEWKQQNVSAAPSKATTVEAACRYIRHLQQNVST
Oligonucleotide | fluorescence intensity [a.u.]
CGGGGTTAAGTTTGACCGGTGGGTGGCTTGCAGCAG | 4630
CGTCCTAGTGATTTTCACGTGCAGTCCATGAGGAAG | 15900
CGTCCTAGTGATTGGTAGGTGGGTGCCATGAGGAAG | 7290
CTTCTGTAAATTTTTCACGTGATATGACGCGCCCCG | 10800
CTAACGAAGGTTTGTCACCTCACTTACAAGCCAAGT | 3120
TACGTTGGGCGACCAAACGTGGCTGGTTGCCTGTAA | 10100
CTAACGAAGGTTTTTCACGTGGGATACAAGCCAAGT | 14400
CTTTCCCGATCTTGAAGAGTGGGTGTAGCACATTTG | 4560

Series 3
Target: BATF2, bZIP domain (human)
Method: DHFR protein complementation
Sample: yeast
Setting: single substitutions, most at no-binding floor
Reference: wild-type JUN-FOS pair
Reading: higher = stronger binding
Starting sequence: JUN, bZIP domain (human); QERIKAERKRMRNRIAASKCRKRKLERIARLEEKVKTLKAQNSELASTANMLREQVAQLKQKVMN; partner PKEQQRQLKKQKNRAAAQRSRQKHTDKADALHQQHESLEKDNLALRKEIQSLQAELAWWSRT
Change | binding fitness [natural log]
E44W | -0.736
N42M | -1.25
V35G | -1.32
L31E | -0.826
L52I | -0.885
M51L | -0.247
S43V | -0.304
L38S | -0.944

Further values, each from its own experiment
SMILES | cell line | concentration | time | endpoint | result
CC(C)NCC(O)c1ccc(O)c(O)c1 (stereo not shown) | A-375 | 100 µM | 36 h | viability | 97.6%

Excerpt of the above (series 1):
Oligonucleotide | relative binding energy [ln ratio]
AAGTTAAT | -0.14
ATGCACGC | 1.28
ATGCCCCC | 1.32
ATGCCGTT | 1.28
